Measurements gathered from unrelated publications.
Numbers after ± are the reported error.
Sequence of UniProt P06276 (whole entry, looked up): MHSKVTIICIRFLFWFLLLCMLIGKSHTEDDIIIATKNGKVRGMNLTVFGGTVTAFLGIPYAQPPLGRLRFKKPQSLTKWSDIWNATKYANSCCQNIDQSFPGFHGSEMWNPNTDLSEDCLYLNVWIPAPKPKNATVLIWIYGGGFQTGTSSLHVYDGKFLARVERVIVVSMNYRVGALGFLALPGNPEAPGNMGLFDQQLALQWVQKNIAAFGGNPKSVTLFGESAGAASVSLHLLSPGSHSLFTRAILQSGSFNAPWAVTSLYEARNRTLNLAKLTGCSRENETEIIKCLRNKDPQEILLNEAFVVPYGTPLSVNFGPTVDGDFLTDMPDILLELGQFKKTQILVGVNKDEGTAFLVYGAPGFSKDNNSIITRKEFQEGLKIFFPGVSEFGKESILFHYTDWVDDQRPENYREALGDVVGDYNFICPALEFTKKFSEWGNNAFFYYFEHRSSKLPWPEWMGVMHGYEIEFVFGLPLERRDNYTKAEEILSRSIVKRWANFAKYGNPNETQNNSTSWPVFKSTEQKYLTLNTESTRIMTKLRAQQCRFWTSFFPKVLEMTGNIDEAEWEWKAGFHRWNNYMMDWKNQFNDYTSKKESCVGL

For `O=C1Nc2cc3[nH]nc(-c4ccncc4)c3cc2CN1Cc1ccccc1`, “patients with cough” read 0% (CTCAE v4.03; advanced solid tumour patients; intravenous, 0.45 mg/kg, schedules 1/2).
`CO[C@H]1C[C@@H]2CC[C@@H](C)[C@@](O)(O2)C(=O)C(=O)N2CCCC[C@H]2C(=O)O[C@H]([C@H](C)C[C@@H]2CC[C@@H](OC(=O)NCCOCCOCCOCCOCCOCCOCCOCCOCCC(=O)N3CCc4cc(Cn5nc(-c6ccc7oc(N)nc7c6)c6c(N)ncnc65)ccc4C3)[C@H](OC)C2)C[C@@H](O)[C@H](C)/C=C(\C)[C@@H](O)[C@@H](OC)C(=O)[C@H](C)C[C@H](C)/C=C/C=C/C=C/1C` gave a headache incidence of 50% (patients with advanced solid tumours; intravenous, 16 mg weekly, any grade).
The lymphocytes of `CC(C)C[C@H](NC(=O)[C@H](CCCCN)NC(=O)OCC1c2ccccc2-c2ccccc21)C(=O)N[C@H](C(=O)N[C@@H](Cc1ccccc1)C(=O)N[C@@H](Cc1ccccc1)C(=O)N[C@@H](CCCCN)C(=O)NCC(=O)N[C@@H](Cc1ccccc1)C(=O)N[C@@H](C)C(=O)N[C@@H](Cc1c[nH]c2ccccc12)C(=O)N[C@@H](CC(N)=O)C(=O)N[C@H](C(=O)N[C@H]1CSSC[C@@H](C(=O)N[C@@H](Cc2c[nH]cn2)C(=O)N[C@@H](CCCNC(=N)N)C(=O)N[C@@H](CCCNC(=N)N)C(=O)N[C@@H](C)C(=O)N[C@@H](CC(N)=O)C(N)=O)NC(=O)[C@H](C(C)C)NC(=O)[C@H](CCCNC(=N)N)NC(=O)[C@H](C(C)C)NC(=O)CNC(=O)[C@H](CC(N)=O)NC(=O)[C@H](CCCNC(=N)N)NC(=O)[C@H](Cc2ccc(O)cc2)NC(=O)[C@H](C(C)C)NC1=O)C(C)C)C(C)C` is reported as 72.7 ± 1.66% (ICR mouse, blood; intramammary, 10 mg/kg, day 5, 3 d dosing).
For `CC[C@H](C)[C@H](NC(=O)[C@H](Cc1ccccc1)NC(=O)[C@H](CCC(=O)O)NC(=O)[C@H](CCCNC(=N)N)NC(=O)[C@H](C)NC(=O)[C@H](C)NC(=O)[C@H](CCC(N)=O)NC(=O)[C@H](CCC(=O)O)NC(=O)[C@H](CCC(=O)O)NC(=O)[C@H](CC(C)C)NC(=O)[C@H](Cc1ccc(O)cc1)NC(=O)[C@H](CO)NC(=O)[C@H](CO)NC(=O)[C@@H](NC(=O)[C@H](CC(=O)O)NC(=O)[C@H](CO)NC(=O)[C@@H](NC(=O)[C@H](Cc1ccccc1)NC(=O)[C@@H](NC(=O)CNC(=O)[C@H](CCC(=O)O)NC(=O)[C@H](C)NC(=O)CCc1cnc[nH]1)[C@@H](C)O)[C@@H](C)O)C(C)C)C(=O)N[C@@H](C)C(=O)N[C@@H](Cc1c[nH]c2ccccc12)C(=O)N[C@@H](CC(C)C)C(=O)N[C@H](C(=O)N[C@@H](CCCNC(=N)N)C(=O)NCC(=O)N[C@@H](CCCNC(=N)N)C(=O)N[C@@H](CCCCNC(=O)COCCOCCNC(=O)COCCOCCNC(=O)CC[C@H](NC(=O)CCCCCCCCCCCCCCCCC(=O)O)C(=O)O)C(=O)NCC(=O)NCC(=O)N[C@@H](CO)C(=O)N[C@@H](CCCCNC(=O)[C@H](CCCCNc1c(NCCCCCN(O)C(=O)CCC(=O)NCCCCCN(O)C(=O)CCC(=O)NCCCCCN(O)C(C)=O)c(=O)c1=O)Nc1c(NCCCCCN(O)C(=O)CCC(=O)NCCCCCN(O)C(=O)CCC(=O)NCCCCCN(O)C(C)=O)c(=O)c1=O)C(=O)O)C(C)C` [zirconium-89 labelled], the tissue uptake was 0.287 %ID/g (ex vivo gamma counting; male Sprague-Dawley rats, pancreas; intravenous, 1 nmol, 24 h).
`COc1ccc(C[C@@H]2NC(=O)[C@H]([C@@H](C)O)NC(=O)[C@@H]3[C@@H]4CCN3C(=O)[C@@H]3Cc5cn(c6ccc(F)cc56)CCCCCCN(Cc5ccc(cc5)CCNC(=O)[C@]5(C)CCCN5C2=O)C(=O)CCC(=O)N[C@@H](C)C(=O)N[C@H](CNC(=O)CCCCC[N+](C)(C)C)C(=O)N[C@@H](Cc2cccc(c2)CNC(=O)CO4)C(=O)N3)cc1`: “participants with adverse event” 3.9% (refers to: Gastroenteritis; humans; concentration not given, Study-001).
For `CCOc1cc(Oc2ccc(C(F)(F)F)cc2Cl)ccc1[N+](=O)[O-]`, “body weight gain” read 26.3% (rat, male; 250 mg/kg, 4 days).
`O=C(Nc1ccccc1)C1CCN(C(=O)Oc2cccnc2)CC1` — result for “change in Surroundings score”: 0.1 (psychotropic effects VAS; healthy women; 60 mg; relative to: pre-dose baseline, direction not given).
For `CC(C)CC(=O)OC[C@H]1O[C@@](C#N)(c2ccc3c(N)ncnn23)[C@H](O)[C@@H]1O`, “recovery in urine” read 0.00116% (Sprague-Dawley rat, female, urine; 80 mg/kg, time not given; relative to: dose).
The IC50 of `O=c1nc(-c2ccccn2)sc2ccccc12` is reported as 6180 ± 2840 nM (Cholinesterase (BCHE, Homo sapiens, UniProt P06276); enzyme activity, inhibitor; Triton).
For `CN(C(=O)n1cnc(-c2ccc[n+]([O-])c2)c1)C1CCCCC1`, the concentration was 388 ± 43.2 ng/g (Wistar rat, hippocampus; oral, 10 mg/kg, 1 h, single dose).
The decreased WBC of `C[C@@H](NC(=O)N1C(=O)[C@H](Cc2ccnc(N)c2)[C@H]1C(=O)O)C1CCCCC1` is reported as 0% (healthy Chinese adults; continuous intravenous infusion, 1.5 mg/kg/h, 5.0 days).
For `CC(C)C[C@@H]1NC(=O)CNC(=O)[C@H](CC(N)=O)NC(=O)[C@H](CCCNC(=N)N)NC(=O)[C@H]([C@@H](C)O)NC(=O)[C@@H]2CSSC[C@@H]3NC(=O)[C@H]([C@@H](C)O)NC(=O)CNC(=O)CNC(=O)[C@H](C(C)C)NC(=O)[C@@H]4CSSC[C@H](NC(=O)[C@H]([C@@H](C)O)NC(=O)[C@H](CSSC[C@H](NC(=O)[C@H](C(C)C)NC(=O)[C@H](CCCCN)NC1=O)C(=O)NCC(=O)N[C@@H](CCC(=O)O)C(=O)N[C@@H]([C@@H](C)O)C(=O)N4)NC(=O)CNC(=O)[C@@H]1CCCN1C(=O)[C@H]([C@@H](C)O)NC(=O)[C@H](CC(N)=O)NC3=O)C(=O)N[C@@H](CO)C(=O)N[C@@H](Cc1c[nH]c3ccccc13)C(=O)N1CCC[C@H]1C(=O)N[C@@H](C(C)C)C(=O)N2`, the remaining peptide was 97.7 ± 0.2% (HPLC; water; 180 µM, 14 days, 37 °C, deamidation stability).
`N[C@@H]1c2ccccc2OC12CCN(c1cnc3c(N4CCCc5ncccc54)n[nH]c3n1)CC2` — result for “TEAE leading to withdrawal”: 0% (advanced metastatic solid tumour patients; oral, 10 mg once daily).
`C[C@]1(O)C[C@@](N)(c2ccc(-c3nc4n(c3-c3ccccc3)COc3ccncc3-4)cc2)C1` — result for “patients with AST increased TEAE”: 17.6% (human, advanced or metastatic solid tumours; dose not given, all patients).
`CC(C)[C@H](O)C(=O)N[C@H]1Cc2ccc3c(c2)[C@]2(C4=C(c5nc(CO)co5)N=C(O4)[C@H](C(C)(C)C)NC1=O)c1cc(F)ccc1N[C@@H]2O3` has a terminal half-life of 5.8 h (NSG mice, plasma; intravenous, 10 mg/kg, single dose at MTD, added: paclitaxel 40 mg/kg).
`Clc1ccc(Cl)c(-c2cc(Cl)c(Cl)cc2Cl)c1` gave a log K(PDMS-water) of 5.94 ± 0.04 (fresh water; 20 °C, S100 sampler, 100 µm).
For `COc1ccnc(C(=O)N[C@H]2COC(=O)[C@H](Cc3ccccc3)[C@@H](OC(=O)C(C)C)[C@H](C)OC2=O)c1OCOC(=O)C(C)C`, the KFoc was 8700 mL/g (soil adsorption; clay soil; pH 7.6, organic carbon 1.7 %).
Under “grade ≥3 hyponatraemia”, `NC(=O)[C@H]1CCN(c2ncnc(N)c2F)C[C@@H]1N1CCC[C@@H](Nc2cc(Cl)cc(C(F)(F)F)c2)C1=O` is recorded as 25% (B-cell malignancy patients; oral, 164 mg twice daily, dose).
`Clc1ccc(-c2ccc(Cl)c(Cl)c2)cc1Cl` — result for “literature range factor”: 2 (PDMS-water partitioning; PCB compilation; relative to: maximum over minimum K).
With `COc1cccc2c1CCCC2CCCN1CCN(C2CCCCC2)CC1` (stereo not drawn) the AUC(0-t) was 698 ng·h/mL (CD-1 mouse, male, plasma; intraperitoneal, 30 mg/kg).
`CCc1ccc(CC/C=C/c2ccc3c(c2)C(=O)CC3)cc1` has a chloride of 105 mM (Sprague-Dawley rat, female, serum; oral, 450 mg/kg/day, 14 days).
`CN[C@H]1CC[C@@H](c2ccc(Cl)c(Cl)c2)c2ccccc21` has a Tmax of 0.5 h (CD-1 mouse, male, lung; intraperitoneal, 3 mg/kg).
For `CN1CCN(c2ccc(Nc3nccc(-c4ccnc(Cl)c4)n3)cc2C(F)(F)F)CC1`, the toxicity was 11 ± 17% (zebrafish embryos; 25 µM, 5 d).
For `COc1cc2c(Oc3ccc4[nH]c(C)cc4c3F)ccnc2cc1OCC1(N)CC1`, “grade 1 or 2 Nausea” read 6.7% (paediatric recurrent refractory sarcoma; 8 mg/kg).
`Clc1ccc(-c2ccccc2)cc1` gave a glucose of 304 ± 115 mg/dL (Sprague-Dawley rats, female, serum; inhalation, 23 µg/rat, 1 h after exposure).
For `C=CC(=O)Nc1cc(Nc2nccc(Nc3cc(Cl)c(F)cc3C(C)(C)O)n2)c(OC)cc1N1CC[C@@H](N(C)C)C1`, “patients with adverse event Pneumonia” read 10.8% (human; oral, dose not given, phase I clinical).
`OC(c1cc(C(F)(F)F)nc2c(C(F)(F)F)cccc12)C1CCCCN1` (stereo not drawn) has an IC50 of 62 nM (Plasmodium falciparum; D10).
Under “blood chemistry level”, `O=S(=O)(Nc1ccccc1)c1ccc(NC(=S)Nc2ccccc2)cc1` is recorded as 0.2 mg/dL (refers to: CREA; male mouse, blood; oral, 80 mg/kg daily, 14 days).
The IC50 of `O=C1N=c2cc(Cl)c(Cl)cc2=NC1=O` is reported as 2510 nM (Plasmodium falciparum; 3D7).
The log K(PDMS-water) of `c1cc2ccc3cccc4ccc(c1)c2c34` is reported as 4.33 (fresh water; 12 (unit not given), 20 °C, S30-2 sampler, 30 µm).

A few entries again:
For `O=C1Nc2cc3[nH]nc(-c4ccncc4)c3cc2CN1Cc1ccccc1`, “patients with cough” read 0% (CTCAE v4.03; advanced solid tumour patients; intravenous, 0.45 mg/kg, schedules 1/2).
`CO[C@H]1C[C@@H]2CC[C@@H](C)[C@@](O)(O2)C(=O)C(=O)N2CCCC[C@H]2C(=O)O[C@H]([C@H](C)C[C@@H]2CC[C@@H](OC(=O)NCCOCCOCCOCCOCCOCCOCCOCCOCCC(=O)N3CCc4cc(Cn5nc(-c6ccc7oc(N)nc7c6)c6c(N)ncnc65)ccc4C3)[C@H](OC)C2)C[C@@H](O)[C@H](C)/C=C(\C)[C@@H](O)[C@@H](OC)C(=O)[C@H](C)C[C@H](C)/C=C/C=C/C=C/1C` gave a headache incidence of 50% (patients with advanced solid tumours; intravenous, 16 mg weekly, any grade).
`Clc1ccc(-c2ccccc2)cc1` gave a glucose of 304 ± 115 mg/dL (Sprague-Dawley rats, female, serum; inhalation, 23 µg/rat, 1 h after exposure).
`CCc1ccc(CC/C=C/c2ccc3c(c2)C(=O)CC3)cc1` has a chloride of 105 mM (Sprague-Dawley rat, female, serum; oral, 450 mg/kg/day, 14 days).
